# Measurements gathered from unrelated publications.
# Compare with care: the assays were run in different laboratories. Values joined by “and” are separate records of one study, mostly repeats; a detail may differ. Numbers after ± are the reported error.
# Chain of UniProt P45984 (whole entry, looked up): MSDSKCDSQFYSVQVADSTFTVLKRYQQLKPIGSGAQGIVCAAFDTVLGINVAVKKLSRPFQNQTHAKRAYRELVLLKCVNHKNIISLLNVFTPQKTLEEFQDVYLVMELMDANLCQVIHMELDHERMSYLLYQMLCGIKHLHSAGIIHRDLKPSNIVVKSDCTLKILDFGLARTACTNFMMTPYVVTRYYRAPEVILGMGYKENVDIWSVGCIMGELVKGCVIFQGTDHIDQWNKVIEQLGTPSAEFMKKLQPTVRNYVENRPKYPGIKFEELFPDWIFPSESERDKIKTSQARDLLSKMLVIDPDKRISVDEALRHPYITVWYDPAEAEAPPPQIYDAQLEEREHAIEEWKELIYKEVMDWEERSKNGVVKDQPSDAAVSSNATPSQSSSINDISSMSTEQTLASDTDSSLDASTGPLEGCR
# Chain of UniProt Q923J1 (whole entry, looked up): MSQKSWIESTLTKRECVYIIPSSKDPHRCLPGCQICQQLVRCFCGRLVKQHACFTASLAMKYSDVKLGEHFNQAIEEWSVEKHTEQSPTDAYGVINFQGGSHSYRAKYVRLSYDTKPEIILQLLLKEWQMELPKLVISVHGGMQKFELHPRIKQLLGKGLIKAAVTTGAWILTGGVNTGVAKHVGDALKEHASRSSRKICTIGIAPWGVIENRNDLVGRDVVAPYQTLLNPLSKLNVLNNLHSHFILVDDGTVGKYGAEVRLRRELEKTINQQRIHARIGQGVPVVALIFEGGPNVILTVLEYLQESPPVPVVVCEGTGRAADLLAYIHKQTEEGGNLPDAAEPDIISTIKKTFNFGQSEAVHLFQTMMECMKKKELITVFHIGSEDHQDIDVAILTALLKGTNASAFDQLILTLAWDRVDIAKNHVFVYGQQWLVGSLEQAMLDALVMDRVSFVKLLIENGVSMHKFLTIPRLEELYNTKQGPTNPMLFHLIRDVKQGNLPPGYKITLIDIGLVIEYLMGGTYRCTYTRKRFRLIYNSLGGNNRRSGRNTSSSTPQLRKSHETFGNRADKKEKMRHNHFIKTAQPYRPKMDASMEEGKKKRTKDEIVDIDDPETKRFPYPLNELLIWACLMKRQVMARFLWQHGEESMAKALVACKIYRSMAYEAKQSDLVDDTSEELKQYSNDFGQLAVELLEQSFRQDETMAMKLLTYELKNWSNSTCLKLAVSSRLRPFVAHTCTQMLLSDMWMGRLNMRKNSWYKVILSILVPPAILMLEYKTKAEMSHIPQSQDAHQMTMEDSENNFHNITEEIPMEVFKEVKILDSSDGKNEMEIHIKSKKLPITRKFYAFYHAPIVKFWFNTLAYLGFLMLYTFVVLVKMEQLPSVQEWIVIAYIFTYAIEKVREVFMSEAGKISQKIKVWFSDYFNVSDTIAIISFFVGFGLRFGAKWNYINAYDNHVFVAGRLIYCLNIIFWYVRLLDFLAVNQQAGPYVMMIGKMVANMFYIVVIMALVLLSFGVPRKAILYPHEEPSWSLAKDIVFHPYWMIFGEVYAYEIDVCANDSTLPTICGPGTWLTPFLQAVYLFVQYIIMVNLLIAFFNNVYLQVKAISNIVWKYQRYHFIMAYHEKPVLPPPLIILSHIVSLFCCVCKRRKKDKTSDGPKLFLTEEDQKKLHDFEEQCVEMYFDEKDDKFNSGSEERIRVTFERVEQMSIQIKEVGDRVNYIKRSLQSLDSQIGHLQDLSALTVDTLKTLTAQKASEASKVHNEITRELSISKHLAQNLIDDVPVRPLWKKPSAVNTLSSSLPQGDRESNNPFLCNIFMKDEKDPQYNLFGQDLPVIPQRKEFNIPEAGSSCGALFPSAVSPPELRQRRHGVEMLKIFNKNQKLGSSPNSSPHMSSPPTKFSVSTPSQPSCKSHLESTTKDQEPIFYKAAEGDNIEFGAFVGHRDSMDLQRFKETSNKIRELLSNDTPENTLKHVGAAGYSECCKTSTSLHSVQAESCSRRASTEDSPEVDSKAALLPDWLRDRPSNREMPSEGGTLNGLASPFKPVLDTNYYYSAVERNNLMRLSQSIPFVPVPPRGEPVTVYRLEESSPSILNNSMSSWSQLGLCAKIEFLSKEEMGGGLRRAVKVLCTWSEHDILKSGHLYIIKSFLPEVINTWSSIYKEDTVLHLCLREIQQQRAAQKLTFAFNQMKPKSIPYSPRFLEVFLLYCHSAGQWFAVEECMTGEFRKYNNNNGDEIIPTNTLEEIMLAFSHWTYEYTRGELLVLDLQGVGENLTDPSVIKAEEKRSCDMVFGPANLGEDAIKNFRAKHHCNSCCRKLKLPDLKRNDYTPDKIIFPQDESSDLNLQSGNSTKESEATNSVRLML
# Chain of UniProt Q9UKF6 (whole entry, looked up): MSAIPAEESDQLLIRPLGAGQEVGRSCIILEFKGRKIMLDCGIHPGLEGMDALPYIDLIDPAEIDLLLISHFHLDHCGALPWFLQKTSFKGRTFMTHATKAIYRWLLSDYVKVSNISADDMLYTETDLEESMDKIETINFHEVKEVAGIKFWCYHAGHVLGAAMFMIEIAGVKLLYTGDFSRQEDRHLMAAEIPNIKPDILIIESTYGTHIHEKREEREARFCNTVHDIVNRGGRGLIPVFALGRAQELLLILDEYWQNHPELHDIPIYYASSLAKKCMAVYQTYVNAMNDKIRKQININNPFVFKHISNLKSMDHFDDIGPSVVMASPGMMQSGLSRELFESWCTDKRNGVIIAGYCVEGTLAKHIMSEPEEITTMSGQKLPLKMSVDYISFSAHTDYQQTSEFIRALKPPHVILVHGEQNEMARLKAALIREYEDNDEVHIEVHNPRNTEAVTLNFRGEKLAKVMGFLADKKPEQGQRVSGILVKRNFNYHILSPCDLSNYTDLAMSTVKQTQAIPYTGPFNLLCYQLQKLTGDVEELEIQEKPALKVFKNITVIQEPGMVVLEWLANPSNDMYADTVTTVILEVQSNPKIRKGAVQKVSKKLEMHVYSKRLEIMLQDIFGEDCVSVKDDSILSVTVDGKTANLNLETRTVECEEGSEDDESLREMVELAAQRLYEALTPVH
# Chain of UniProt Q86TI2 (whole entry, looked up): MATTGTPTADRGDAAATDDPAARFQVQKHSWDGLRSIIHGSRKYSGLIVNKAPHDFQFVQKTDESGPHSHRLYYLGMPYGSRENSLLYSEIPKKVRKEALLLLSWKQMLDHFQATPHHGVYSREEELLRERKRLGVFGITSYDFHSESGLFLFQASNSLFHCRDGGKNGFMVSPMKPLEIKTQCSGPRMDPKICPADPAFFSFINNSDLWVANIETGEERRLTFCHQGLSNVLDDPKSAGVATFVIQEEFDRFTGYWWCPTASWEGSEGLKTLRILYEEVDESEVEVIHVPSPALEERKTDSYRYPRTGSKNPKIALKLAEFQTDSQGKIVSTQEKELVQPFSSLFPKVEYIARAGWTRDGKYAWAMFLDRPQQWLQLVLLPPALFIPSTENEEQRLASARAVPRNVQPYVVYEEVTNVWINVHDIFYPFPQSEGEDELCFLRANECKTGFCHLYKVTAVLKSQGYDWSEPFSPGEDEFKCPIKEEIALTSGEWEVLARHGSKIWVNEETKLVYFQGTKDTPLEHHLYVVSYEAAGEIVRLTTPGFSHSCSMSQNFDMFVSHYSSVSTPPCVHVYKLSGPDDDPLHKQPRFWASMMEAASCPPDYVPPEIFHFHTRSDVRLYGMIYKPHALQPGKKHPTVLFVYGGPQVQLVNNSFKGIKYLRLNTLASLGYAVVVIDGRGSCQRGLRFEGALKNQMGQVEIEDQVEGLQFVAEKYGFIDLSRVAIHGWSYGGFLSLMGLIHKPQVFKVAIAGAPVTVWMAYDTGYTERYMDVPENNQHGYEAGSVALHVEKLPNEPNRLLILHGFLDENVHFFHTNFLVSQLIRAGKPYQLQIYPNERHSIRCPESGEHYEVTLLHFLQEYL
# Chain of UniProt Q04760 (whole entry, looked up): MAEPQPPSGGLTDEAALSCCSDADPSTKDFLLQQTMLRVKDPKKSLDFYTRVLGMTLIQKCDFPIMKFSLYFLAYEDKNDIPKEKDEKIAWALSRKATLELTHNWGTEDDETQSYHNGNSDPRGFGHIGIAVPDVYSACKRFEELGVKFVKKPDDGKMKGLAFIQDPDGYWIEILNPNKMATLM
# Chain of UniProt P24385 (whole entry, looked up): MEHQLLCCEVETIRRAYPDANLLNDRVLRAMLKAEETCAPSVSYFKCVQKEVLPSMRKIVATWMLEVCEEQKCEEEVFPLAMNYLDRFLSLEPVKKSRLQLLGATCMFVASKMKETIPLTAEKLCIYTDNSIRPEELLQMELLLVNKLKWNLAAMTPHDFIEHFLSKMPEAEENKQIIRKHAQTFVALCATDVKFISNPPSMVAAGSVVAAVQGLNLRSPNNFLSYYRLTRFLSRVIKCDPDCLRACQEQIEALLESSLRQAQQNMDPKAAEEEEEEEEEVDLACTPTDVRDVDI
# Chain of UniProt P30101 (whole entry, looked up): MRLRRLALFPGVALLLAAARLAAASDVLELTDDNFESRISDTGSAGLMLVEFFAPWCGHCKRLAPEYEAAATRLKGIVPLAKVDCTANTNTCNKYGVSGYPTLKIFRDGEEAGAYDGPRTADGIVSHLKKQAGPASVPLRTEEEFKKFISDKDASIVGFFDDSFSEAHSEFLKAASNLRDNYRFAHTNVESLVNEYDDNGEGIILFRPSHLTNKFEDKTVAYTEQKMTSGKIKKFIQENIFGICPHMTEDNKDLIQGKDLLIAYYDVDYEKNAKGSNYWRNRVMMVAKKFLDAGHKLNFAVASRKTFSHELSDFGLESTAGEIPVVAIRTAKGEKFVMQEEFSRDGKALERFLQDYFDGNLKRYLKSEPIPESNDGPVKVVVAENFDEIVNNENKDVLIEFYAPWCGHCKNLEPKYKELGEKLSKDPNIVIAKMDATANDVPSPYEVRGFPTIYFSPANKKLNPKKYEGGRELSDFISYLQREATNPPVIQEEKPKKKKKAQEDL
# Chain of UniProt Q05097 (whole entry, looked up): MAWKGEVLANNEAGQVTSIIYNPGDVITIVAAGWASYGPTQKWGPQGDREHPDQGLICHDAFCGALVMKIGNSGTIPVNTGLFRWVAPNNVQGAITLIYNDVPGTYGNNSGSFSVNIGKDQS
Compound,target,test,conditions,IC50
COc1ncnc(C2CC2)c1-c1ncc2c(n1)n(Cc1ccc(-c3nc(C(F)(F)F)cn3C)cc1)c(=N)n2CC(F)(F)F,"HTR2B (Homo sapiens, UniProt P41595)",cell-based,,1.8 µM
CC(C)NC(=O)NNS(=O)(=O)c1ccc2c(c1)n(C)c(=O)c(=O)n2C,"DPP9 (Homo sapiens, UniProt Q86TI2)","enzyme activity, inhibitor, fluorescence",,> 100 µM
Oc1ccc(C#Cc2c(O)ccc3c2C(c2ccc(O)cc2)(c2ccc(O)cc2)c2cc(O)ccc2-3)cc1,"PDE4D (Homo sapiens, UniProt Q08499)","enzyme activity, inhibitor, fluorescence",,0.19 µM
N[C@@H](Cc1c[nH]c2c(OCc3ccccc3)cccc12)C(=O)O,"SLC7A5 (Homo sapiens, UniProt Q01650)","transporter uptake, inhibitor, radiometric",,> 100 µM
N=C(N)NCCCC(N)C(=O)NCC(=O)NC(CCCCNC(=N)NCCSCC1OC(n2cnc3c(N)ncnc32)C(O)C1O)C(N)=O (stereo not drawn),"PRMT1 (Homo sapiens, UniProt Q99873)",inhibitor,,8.3 ± 0.1 µM
NC[C@H]1O[C@@H](c2cn([C@H]3[C@H](O)[C@@H](O)[C@H](n4cc([C@@H]5O[C@H](CN)[C@@H](n6cc(CO[C@@H]7O[C@H](CO)[C@H](O)[C@H](O)[C@H]7O)nn6)[C@H](O)[C@H]5O)nn4)O[C@@H]3CO)nn2)[C@H](O)[C@@H](O)[C@@H]1n1cc(CO[C@@H]2O[C@H](CO)[C@H](O)[C@H](O)[C@H]2O)nn1,"lecA (Pseudomonas aeruginosa, UniProt Q05097)","protein-protein interaction, inhibitor, ELISA",,0.019 µM
C=CC(C)(C)c1cc(/C=C/C(=O)c2ccc(O)cc2)c(OC)cc1O,"Prothrombin (F2, Homo sapiens, UniProt P00734)","enzyme activity, inhibitor, fluorescence",with preincubation,7.96 µM
CC(C)C[C@H](NC(=O)[C@H](CC(N)=O)NC(=O)[C@H](CC(C)C)NC(=O)[C@@H](NC(=O)[C@@H](NC(=O)[C@@H]1CCCN1C(=O)[C@H](CCCNC(=N)N)NC(=O)[C@H](CCCCN)NC(=O)[C@@H]1CCCN1)[C@@H](C)O)[C@@H](C)O)C(=O)N[C@@H](Cc1ccccc1)C(=O)NCCCCCC(=O)N[C@@H](CCCNC(=N)N)C(=O)N[C@@H](CCCNC(=N)N)C(=O)N[C@@H](CCCNC(=N)N)C(=O)N[C@@H](CCC(N)=O)C(=O)N[C@@H](CCCNC(=N)N)C(=O)N[C@@H](CCCNC(=N)N)C(=O)N[C@@H](CCCCN)C(=O)N[C@@H](CCCCN)C(=O)N[C@@H](CCCNC(=N)N)C(=O)NCC(N)=O,"MAPK9 (Homo sapiens, UniProt P45984)","enzyme activity, inhibitor",,0.092 µM and ~0.09 µM
COc1cc(C(C)C)c(Oc2cnc(N)nc2N)cc1I,"P2X purinoceptor 2 (P2rx2, Rattus norvegicus, UniProt P49653, I67V)","ion current, patch clamp",,> 10 µM
COC(=O)C1CN1S(=O)(=O)c1ccc2c(C=O)c(N(C)C)ccc2c1 (stereo not drawn),"PDIA3 (Homo sapiens, UniProt P30101)","enzyme activity, inhibitor, absorbance",pH 7.6,4.1 µM
FC(F)(F)c1ccc2nc(NC3CCCc4ccccc43)[nH]c2c1 (stereo not drawn),"Trpm7 (Mus musculus, UniProt Q923J1)",inhibitor,,1.7 µM
O=C(O)CCCC(=S)NCCCC[C@H](NC(=O)OCc1ccccc1)C(=O)Nc1ccccc1,"SIRT5 (Homo sapiens, UniProt Q9NXA8)","desuccinylase activity, inhibitor",together with: succinyl-H3K9 peptide,43 µM
Nc1ccc(/N=N/c2ccc(S(N)(=O)=O)cc2)c2ccc(O)cc12,"GLO1 (Homo sapiens, UniProt Q04760)","enzyme activity, inhibitor",,23 µM
CN1CCN(c2cccc(NC(=O)CCc3cccc4c3B(O)OC4)c2)CC1,"CPSF3 (Homo sapiens, UniProt Q9UKF6)","ligand displacement, FP",,0.24 µM
CC[C@H](C)[C@H](NC(=O)[C@H](CC(C)C)NC(=O)[C@H](CCCNC(=N)N)NC(=O)c1ccc(CN2CCN(C)CC2)cc1)C(=O)N[C@@H](Cc1ccccc1)C(N)=O,"G1/S-specific cyclin-D1, with CDK4 (Homo sapiens, UniProt P24385)","binding to cyclin groove, inhibitor, fluorescence polarization competition",,11.3 ± 1.48 µM

# A few entries again:
Compound,target,test,conditions,IC50
CC(C)NC(=O)NNS(=O)(=O)c1ccc2c(c1)n(C)c(=O)c(=O)n2C,"DPP9 (Homo sapiens, UniProt Q86TI2)","enzyme activity, inhibitor, fluorescence",,> 100 µM
